Measurements pooled from the literature.
Every numbered part comes from another study and shows a few of its results, in no order. Substitutions count along the parent as printed.

Series 1
Target: Ras GTPase-activating protein-binding protein 1, RRM domain (G3BP1, Homo sapiens, UniProt Q13283)
Sequence of UniProt Q13283 (whole entry, looked up): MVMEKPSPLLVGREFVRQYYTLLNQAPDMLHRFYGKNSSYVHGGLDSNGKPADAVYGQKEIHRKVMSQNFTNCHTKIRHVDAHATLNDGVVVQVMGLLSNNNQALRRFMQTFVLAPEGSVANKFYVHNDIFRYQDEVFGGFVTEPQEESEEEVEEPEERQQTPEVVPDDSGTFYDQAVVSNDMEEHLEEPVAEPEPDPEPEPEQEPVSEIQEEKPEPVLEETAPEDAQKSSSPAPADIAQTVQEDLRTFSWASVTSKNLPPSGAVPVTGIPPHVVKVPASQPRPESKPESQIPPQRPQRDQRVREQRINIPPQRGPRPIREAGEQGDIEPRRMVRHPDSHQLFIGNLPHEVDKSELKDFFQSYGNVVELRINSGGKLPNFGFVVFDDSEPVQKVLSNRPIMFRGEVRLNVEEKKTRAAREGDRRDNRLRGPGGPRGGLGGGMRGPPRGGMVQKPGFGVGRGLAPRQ
Method: RNA Bind-n-Seq
Form: RNA
Matrix: in vitro
Concentration: 1 µM
Setting: whole 134-nt RNA, ends assumed
Added: 150 mM KCl
Baseline: input library
Reading: higher = stronger binding
Constant ends, left off below: GGGAGUUCUACAGUCCGACGAUC … UGGAAUUCUCGGGUGUCAAGG
| Sequence | log2 enrichment |
| --- | --- |
| UGGCCCUGGUGGCAUGCGGAGAGGAAGAGGUGGCCUCAUGGAUCGUGGUGGUCCCGGUGGAAUGUUCAGAGGUGGCCGUGGUGGAGACAG | 0.94 |
| UCCUGUGCUACACAUCGUAUGUACCGAAUCGGGGUUUGGGGAAAAAGGGGUUUUUGGGGAAAGUAUUAUGUUACGCCGUUCGGAUCUGCA | 1.41 |
| UGGGAGGUGGAUUUUGUUUAUUUUUUUAGCUCAUUUCCAGGGGUGGGAAUUUUUUUUUAAUAUGUGUCAUGAAUAAAGUUGUUUUUGUAA | 1.76 |
| UCAAGUCCUGUGCUACACAUCGUAUGUACCGAAUCGGAGGAAAAAGGAAAAAGGAAAGUAUUAUGUUACGCCGUUCGGAUCUGCACUUCC | -0.138 |
| ACCAUGCAGGUGGGCAUCUUUGGGAAGUGAAACAAGGGGGGGAUAGGGAGGGGGGUAACACUUUGGGAACAGGUGGUCCCAGGUCGUUUC | -0.56 |
| AGUCCUGUGCUACACAUCGUAUGUACCGAAUCGGGAAAAAAAGGGUGGGUUUUUGGGAAAGUAUUAUGUUACGCCGUUCGGAUCUGCACU | 0.589 |
| CCUCAAGUCCUGUGCUACACAUCGUAUGUACCGAAUCGGGUGGGAGGGAGGGAAAGUAUUAUGUUACGCCGUUCGGAUCUGCACUUCCAG | 0.526 |
| GUCCUGUGCUACACAUCGUAUGUACCGAAUCGGAAAAAAGGGAAAAAAGGAAAAAAGGAAAGUAUUAUGUUACGCCGUUCGGAUCUGCAC | 0.0672 |
| GUCCUGUGCUACACAUCGUAUGUACCGAAUCGGUUUUUUGGGUUUUUUGGUUUUUUGGAAAGUAUUAUGUUACGCCGUUCGGAUCUGCAC | -0.174 |
| CUCAAGUCCUGUGCUACACAUCGUAUGUACCGAAUCGGGUGGGGUGGGGUGGGGAAAGUAUUAUGUUACGCCGUUCGGAUCUGCACUUCC | 0.539 |
| UAACUUUAGAGGAGGAUCAGAUGGAUAUGGCAGUGGACGUGGAUUUGGGGAUGGCUAUAAUGGGUAUGGAGGAGGACCUGGAGGUGGCAA | -0.692 |
| ACCAUGCAGGUGGGCAUCUUUGGGAAGUGGGGCAAGGGGGGGAUAGGGAGGGGGGUAACACUUUGGUAACAGGUGGUCCCAGGUCGUUUC | 0.845 |
| CAAGUCCUGUGCUACACAUCGUAUGUACCGAAUCGGUUUUUGGAGGAAAAAAAGGAAAGUAUUAUGUUACGCCGUUCGGAUCUGCACUUC | -0.201 |
| GCAGGAAGUAAAAACAAAUUGAAAUGCUUCGGAUAGUGGCAGGGGUGGGGGUUGCUAAGGAAAGGGUGGGAUGGGAGUGGGUAAAGAGUU | 1.56 |

Series 2
Target: PABPC1L2, full length, GST fusion (mouse, UniProt A0ABA7IW68)
Method: RNAcompete
Form: RNA
Matrix: in vitro
Concentration: 20 nM
Setting: 7-mer, probes averaged, single round
Baseline: mean of 7-mers
Reading: higher = stronger binding
Target sequence (chain): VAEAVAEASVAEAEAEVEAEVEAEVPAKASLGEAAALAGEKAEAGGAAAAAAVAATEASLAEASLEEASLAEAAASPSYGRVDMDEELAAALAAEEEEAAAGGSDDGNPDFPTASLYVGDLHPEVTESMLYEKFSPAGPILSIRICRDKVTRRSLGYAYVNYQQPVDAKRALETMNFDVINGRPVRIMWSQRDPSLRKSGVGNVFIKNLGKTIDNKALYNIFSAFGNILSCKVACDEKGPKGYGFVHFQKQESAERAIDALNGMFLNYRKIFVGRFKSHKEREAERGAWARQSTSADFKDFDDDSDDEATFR
| Sequence | 7-mer Z-score |
| --- | --- |
| CUGUAUA | -0.177 |
| AUCCAUG | -0.0428 |
| UCUCUUA | -0.266 |
| CAGCGCC | -0.0337 |
| AAACAUA | 3.62 |
| UCAGGUG | -0.0989 |
| UGACCGU | -0.204 |
| GUGGCCC | -0.0645 |
| UCAGUCC | -0.345 |
| AAUGAAC | 0.343 |
| CGAGUCA | -0.267 |
| CGGCUCU | -0.0881 |
| ACUAGGG | 0.331 |
| CUUCUGA | -0.369 |
| UGUACAG | -0.0826 |
| UCUUGGC | -0.211 |
| GAGAAAU | 0.644 |
| CGACAAC | -0.0536 |
| CUCUAUA | -0.0808 |
| CCCCAUA | -0.322 |
| CGACUGC | -0.141 |

Series 3
Target: CCNB3, cyclin fold, Cln2 fusion (human)
Method: yeast growth competition, sequencing
Matrix: yeast
Setting: weak parent motif
Baseline: not given
Reading: higher = stronger binding
Parent: BRCA2 docking peptide (human); CKKRRALDFLSRL
| Change | normalised enrichment score |
| --- | --- |
| C1A | -0.113 |
| R5A | 0.29 |
| F9L | 0.749 |
| L7A | 0.42 |
| R12A | 1.3 |
| D8A | 0.00852 |
| R4A | 0.0666 |

Single results of other studies
| Substance | target | assay | system | setting | scale | measurement | result |
| --- | --- | --- | --- | --- | --- | --- | --- |
| PhoQ, residues 284 288 289 292 302 303 TNSAEL | PhoP, residues 12 14 15 18 19 SYFRT (Escherichia coli, UniProt P23836) | Sort-seq, refers to: YFP reporter | E. coli | PhoQ-PhoP variant library, added: 10 µM Mg2+ | baseline: high Mg2+ state, higher = stronger signaling | fold induction | 1.09 |

A few entries again (series 2):
| Sequence | 7-mer Z-score |
| --- | --- |
| UCUUGGC | -0.211 |
| GAGAAAU | 0.644 |
| CGACAAC | -0.0536 |
